Experimental data from different studies.
Numbered parts are unrelated; each lists some results of a single study.

Study 1 — method: protein-binding microarray; molecule type: double-stranded DNA, one strand shown; medium: in vitro; tested at: 2540 nM top; notes: 60-bp whole probe; together with: salmon DNA 0.4 mg/ml; reference: random background probes; reading: higher = stronger binding; all sequences stand within: GCCTAGCAC … GTCTTGATTCGCTTGACGCTGCTG
Target: Interferon regulatory factor 3, full length, phosphomimetic (IRF3, Homo sapiens, UniProt Q14653, residues 1-427, S386D/S396D/S398D/S402D/T404D/S405D)
Residues (chain): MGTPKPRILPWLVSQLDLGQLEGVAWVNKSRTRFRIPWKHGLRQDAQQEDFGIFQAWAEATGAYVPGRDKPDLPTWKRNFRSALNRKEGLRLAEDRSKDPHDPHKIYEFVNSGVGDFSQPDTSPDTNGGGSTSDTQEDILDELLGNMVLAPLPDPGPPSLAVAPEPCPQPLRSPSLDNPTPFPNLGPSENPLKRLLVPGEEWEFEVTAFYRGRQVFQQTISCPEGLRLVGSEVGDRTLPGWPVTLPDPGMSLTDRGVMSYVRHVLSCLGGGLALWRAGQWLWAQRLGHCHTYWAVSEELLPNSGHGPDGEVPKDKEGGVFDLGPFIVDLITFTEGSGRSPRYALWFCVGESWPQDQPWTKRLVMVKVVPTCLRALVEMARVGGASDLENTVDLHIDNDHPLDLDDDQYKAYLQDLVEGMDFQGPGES
Strand	fitted relative affinity [z-score]
TTGGCTTCCTCTTTCTCTGCGTGCTAG	0.518
GACGGTTCCCTATTCCTGACGTGCTAG	3.54
ATATCTTATCCTATCAGTTTGTGCTAG	1.69
TCAAATTTTAGTAACACACTGTGCTAG	0.0243
TCATCCTTTGCTTTCTCACTGTGCTAG	0.872
TCAAAAAAAAAAAACTGTACTGTGCTA	-0.514
GACGGTTTCGGGTTTCGCGACGTGCTA	5.84
GACAGTTTCGGGTTTCGGGACGTGCTA	5.94
GACTGTATCGACTTTCGGGACGTGCTA	1.31
GACGTTATCGACTATCGGGACGTGCTA	0.0277
TTAGGTTTCGGTCTCGGTCAGTGCTAG	8.2
TTTGGACTGGGTCTCGGTTAGTGCTAG	-0.711
GACGGTATCGGGGATCGGGACGTGCTA	0.554
TTAGGTTCCGGTGTCGGTTAGTGCTAG	2.53
TTACGTATCGACTTTCGGTTAGTGCTA	2.32
TTAGGTCTCGCACTGGGTTAGTGCTAG	-0.569

Study 2 — method: RNA Bind-n-Seq; molecule type: RNA; medium: in vitro; tested at: 365 nM; reference: no-protein control; reading: higher = stronger binding
Target: RNA binding protein fox-1 homolog 2, RRM domain, GST-SBP tag (RBFOX2, Homo sapiens, UniProt O43251-10, residues 100-194)
Notes: natural RNA segment, single round, ends assumed
All sequences stand within: GGGAGUUCUACAGUCCGACGAUC … UGGAAUUCUCGGGUGCCAA
Residues (chain): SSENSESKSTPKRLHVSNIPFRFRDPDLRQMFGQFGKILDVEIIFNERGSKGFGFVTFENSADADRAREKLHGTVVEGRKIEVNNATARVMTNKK
Strand	RBNS enrichment (R)
UCUAUUGUGCUGUAAGUUGAUGUUUAAAAUUGAGAAAUACUUUUGUCAUAGGUAAUUUGGAACAUUUACAAGCCAUUUGUAAAAUUUUAAGAUAAUCUGUAACUAAUACA	0.654
GGCAAGGGCAGGAUGAGGCUGCACCGCUGGGAAGAGUCUAUCUAAGCUCUUGGCUUGGAGUCCCGUGUCGUCUCCACCCAGAGGAAGUUCUCCAGAGUUCACCUUUCCCU	0.31
AGCAGGUACGGUUCUGAUUCUGAUUGCUAUCAAUAACACCCCAUACUUUCUUUGAACAUACUUUGACCUGAAGCUCAAAGGUGGCAGUUGUGAGAUUGGGACACAUAUCU	0.503
CUCUUGACUAUUUAGAUUCUAGUUAAAUAUCUGGAAUCCUAGCAGUCACUACAUUAUCUCAGCAGAGAGACUUUAAUUAAACUGAUUUGUUUCCAAUGUCGGGUUCACUU	0.359
AUCCGUGGCCUUCACCUCUCCAGCUACCCUUUUACCUCAUCAGAAGCAGUGGCUCAGCUAAGUGCUCCCCCUAGCUCCCAUCUCAGGAGACCAAAUCUCACAGAAAAAUA	0.324
UUGGGGAAUCUGAGCUUUUCCAAGGGUAAGGGGCCCAGGGUAUGCAGGCCUUCAGUGACAUCAGGUCGUUGUCAUCCUUUCCCUCCCUGACCUGUCACGAGCCUCUGCAG	0.499
UUUCUUUGUACUUGAAAUUUUAAGAAACCAGAAACAAGUAAAUCUGGUUGUAUCUAGAUCUUUGCUCUGUGUUUCAGUUGUGCCUUACCCUCUGUAAGAUACUGAUUCUU	0.406
UGACUGACAUUCCUCAGUGGUCCUCACAGGUGGUUAUAGGGGGGCUGCCUCUCACCUCCGAGCACUACAUUGUGGCUGUCCCCUGCCCGCCUGCCCGCCUUCUGUCCUGG	0.516

Study 3 — method: aptamer microarray, sandwich; molecule type: DNA with 2'F-ANA; medium: in vitro; tested at: 200 nM; together with: Cy3 exosite-II aptamer, 400 nM; reading: higher = stronger binding; strand: GGTTGGTGTGGTTGG
Target: Prothrombin, mature alpha-thrombin (F2, Homo sapiens, UniProt P00734)
Notes: whole 15-mer aptamer, many near background
Modification	mean fluorescence intensity [a.u.]
2'F-ANA at 1 3 6 7 8 9 10 11 13	78.4
2'F-ANA at 2 4 5 7 8 10 11 13 14	46.1
2'F-ANA at 2 9 10 12 13 15	155
2'F-ANA at 2 9 13 15	347
2'F-ANA at 1 3 7 10 13	73.2
2'F-ANA at 1 3 5 9 10 14 15	46.4
2'F-ANA at 1 2 4 6 8 9 10 13 14	56
2'F-ANA at 1 3 4 8 10 11 14 15	49.6
2'F-ANA at 2 3 4 5 8 9 10 11 12 15	55.6
2'F-ANA at 3 4 6 9 11 12 13 14	246
2'F-ANA at 2 4 5 6 7 8 9 10 11 12 15	55
2'F-ANA at 1 2 4 5 6 7 9 10 15	49.6
2'F-ANA at 1 2 4 10 11 12 13	53
2'F-ANA at 1 5 6 9 10 12 13 14	49.2
2'F-ANA at 1 2 6 8 9 10 13 14 15	49.4
2'F-ANA at 1 2 4 7 8 11 13 14	58
2'F-ANA at 2 4 7 8 9 10 11 13 14 15	64.5
2'F-ANA at 2 3 5 7 8 9 10 11 12 14	211
2'F-ANA at 4 7 10 12 14	66.3
2'F-ANA at 1 4 7 8 9 10 11 12 14 15	48.9
2'F-ANA at 9 10 11 12 14	103
2'F-ANA at 1 2 3 5 6 7 8 9 15	70.9

Study 4 — target: human cyclin A2; method: competitive growth deep sequencing; molecule type: peptide; organism: Saccharomyces cerevisiae; strain: cyclin A2-Cln2 fusion strain; notes: peptide tiling library; reading: direction not given
Molecule	enrichment score
TQERKQIHCLSEDELS	0.428
RRRRLLFWDKETQI	0.00532
HRRRLLFACSPPPASQ	-0.148
NLEPNAEFDKRTEFIT	0.491
RRRIKLPESDSSED	1.67

Study 5 — method: protein binding microarray; molecule type: double-stranded DNA, one strand shown; medium: in vitro; tested at: not given; reference: not given; reading: higher = stronger binding
Target: Histone acetyltransferase KAT6A, winged helix 1, GST fusion (KAT6A, Homo sapiens, UniProt Q92794, residues 1-85)
Notes: 8-mer, flanks averaged, mean of 2 arrays, mostly near background
Construct (chain): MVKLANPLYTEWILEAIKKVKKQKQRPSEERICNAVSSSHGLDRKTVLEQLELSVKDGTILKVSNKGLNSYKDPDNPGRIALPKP
Strand	E-score
CCATGGGA	-0.192
GGAGATGA	-0.103
CCTGCCTC	-0.126
ACATATTC	-0.158
ATCTTTCC	-0.0401
AGGATATG	-0.0373
AGGCCTCC	-0.098
ATTTCAAC	-0.144
CGGCATTA	0.369
GGCGAAGA	0.0537
ACTGTAAA	-0.105
AGGCATTA	-0.229
AACCAATT	-0.167
CAACTGCG	0.235
AGCATAAC	-0.0854
CAGGCGCG	0.311
CACAATGA	-0.317
ACTCGTGC	0.0647
GTGCCCTA	-0.0843
CAACCTCC	0.0669
AATCTACG	0.0276
CCCAGACC	-0.0366
GAAGTCGA	-0.23
AAAAGCCC	-0.123
GCCCGGCA	0.284
